Measurements pooled from the literature.
Protocols differ between the studies behind these lines. “And” joins repeats or separate records; there may be more than shown. ± gives the spread as reported.
IDE: Insulin-degrading enzyme (IDE, Homo sapiens, UniProt P14735)

C[C@H](CS)C(=O)N1CCC[C@H]1C(=O)O  extracellular enkephalin concentration (inhibitor, LC-MS/MS, item: Met- or Leu-enkephalin; mouse striatal brain slices; 10 µM, 20 min, with: 50 mM KCl): 846 pM and 1250 pM and 853 pM and 520 pM and 1020 pM and 626 pM
N[C@@H](CC(=O)N1CCn2c(nnc2C(F)(F)F)C1)Cc1cc(F)c(F)cc1F  BNP (item: B-type natriuretic peptide; type 2 diabetes patients on metformin, plasma; oral, 100 mg once daily, 28 weeks): 17.9 pg/mL
CC(C)NCC(O)c1ccc(O)c(O)c1 (stereo not drawn)  sarcomere length (ventricular cardiomyocytes, C57BL/6 mouse; dose not given, 0.72 s): 1.72 µm
c1ccc(-c2n[nH]cc2-c2ccnc3ccccc23)nc1  log2 fold change (kinase binding, competitor, MIB/MS competition, item: RCK2; Candida albicans cell lysate; 10 µM; relative to: DMSO): 1.56
CCOCc1nc(O)c(-c2nnc(Cc3ccc(Cl)cn3)o2)c(O)c1-c1c(OC)cccc1OC  heart rate change (anaesthetised rat; intravenous infusion, 10 µg/kg/min for 15 min; relative to: baseline): 2.4 ± 0.7%
CCc1c(C)nc(-c2ccc(Cl)s2)nc1Nc1ccc(CC(=O)O)cc1  serum AST (C57BL/6J mice, MCD diet; intraperitoneal, 0.3 mg/kg daily, MCD diet 6 weeks, dosed last two; relative to: vehicle): decreased
CC(C)n1c(C2CCNCC2)nc2c([N+](=O)[O-])c(Br)c(Br)cc21  patients with blast reduction (item: blasts; AML patients IDH mutated, bone marrow; dose not given, ≥50% reduction from baseline): 37%
CC/C=C\C/C=C\C/C=C\C/C=C\C/C=C\CCCC(=O)O  reduction of mesangial expansion (mouse, high-fat diet and streptozotocin diabetes; dose not given, 19 weeks): 24 ± 11%
CC(=O)NCC(=O)NCC(=O)N[C@H](C(=O)N[C@@H](Cc1ccc(O)cc1)C(=O)N[C@@H](CO)C(=O)N[C@H]1CSSC[C@@H](C(=O)N[C@@H](CCCNC(=N)N)C(=O)N2CCC[C@H]2C(=O)N[C@@H](CCC(N)=O)C(=O)N[C@@H](CCCNC(=N)N)C(=O)NCC(=O)NCCC(=O)N[C@@H](CCCCNC(=O)CN(CC(=O)NCCCC[C@H](NC(=O)CCNC(=O)CNC(=O)[C@H](CCCNC(=N)N)NC(=O)[C@H](CCC(N)=O)NC(=O)[C@@H]2CCCN2C(=O)[C@H](CCCNC(=N)N)NC(=O)[C@@H]2CSSC[C@H](NC(=O)[C@H](CO)NC(=O)[C@H](Cc3ccc(O)cc3)NC(=O)[C@@H](NC(=O)CNC(=O)CNC(C)=O)[C@@H](C)O)C(=O)N[C@@H](Cc3c[nH]cn3)C(=O)N[C@@H](Cc3ccccc3)C(=O)NCC(=O)N[C@@H](C)C(=O)N[C@@H](CC(C)C)C(=O)N[C@@H]([C@@H](C)O)C(=O)N[C@@H](Cc3c[nH]c4ccccc34)C(=O)N[C@@H](C(C)C)C(=O)N2)C(N)=O)C(=O)CCN)C(N)=O)NC(=O)[C@H](C(C)C)NC(=O)[C@H](Cc2c[nH]c3ccccc23)NC(=O)[C@H]([C@@H](C)O)NC(=O)[C@H](CC(C)C)NC(=O)[C@H](C)NC(=O)CNC(=O)[C@H](Cc2ccccc2)NC(=O)[C@H](Cc2c[nH]cn2)NC1=O)[C@@H](C)O  reticulocytes (healthy BALB/c mice; subcutaneous, 0.16 mg/kg, 6 d, single dose): 4.5%
Cc1n[nH]c2ccc(-c3cc(OC[C@@H](N)Cc4ccccc4)cnc3-c3ccoc3)cc12  log2 fold change (kinase binding, competitor, MIB/MS competition, item: CTK1; Candida albicans cell lysate; 1 µM; relative to: DMSO): -0.159
O=C1Nc2cc3[nH]nc(-c4ccncc4)c3cc2CN1Cc1ccccc1  stable disease, best response (RECIST v1.1; human, relapsed or refractory advanced solid tumours; intravenous, 7.2 mg/kg): 33%
COc1cc(C2C3=C(COC3=O)N(CCO)c3cc4c(cc32)CCC4)cc(OC)c1OC (stereo not drawn)  lung metastasis reduction (female NSG mice, EMT6 orthotopic; intraperitoneal, 30 mg/kg, 5 days/week, 21 days; relative to: vehicle): ~66%
O=C1O[C@H]([C@@H](O)CO)C(O)=C1O  inhibition (superoxide scavenging; 80 µM): 41.7%
CC(C)c1c(C(=O)Nc2ccccc2)c(-c2ccccc2)c(-c2ccc(F)cc2)n1CC[C@@H](O)C[C@@H](O)CC(=O)O  total cholesterol (cynomolgus monkey, male, serum; 40 mg/kg or 25 mg/kg, day 176, 4224 h): 120 mg/dL
[Mn+2]  CD18-high cell fraction (flow cytometry; conventional CD4-high T cells, BALB/c mouse; dose not given; relative to: no Mn2+): 0.78 and 4.79 and 10.4 and 0.76 and 3.37 and 1.28 and 1.48 and 5.52
O=C(OC(C(F)(F)F)C(F)(F)F)N1CCN(Cc2cccc(Oc3ccccc3)c2)CC1  volume of distribution (PET blocking study; rhesus monkey, brain thalamus; intravenous, 0.3 mg/kg, compound pretreatment, with: [18F]T-401 tracer): 1.32 mL/cm3
COc1ccccc1[C@H](Cn1c(=O)n(C(C)(C)C(=O)O)c(=O)c2c(C)c(-c3ncco3)sc21)OC1CCOCC1  fractional hepatic DNL ([1-13C]acetate infusion, isotopomer analysis; overweight or obese healthy men, plasma VLDL-TG palmitate; oral, 20 mg single dose, 7 h post-dose, with: oral fructose): 13.3 % new palmitate
O=C(O)/C=C/c1nccc2c3ccccc3n(Cc3ccc(Br)c4ccccc34)c12  decrease in serum uric acid (mouse, acute hyperuricaemia model; oral, 2 mg/kg): 82.9%
COc1cc(-c2ccccc2)ncc1C(=O)Nc1ccc2c(=O)[nH]c(-c3ccc(C(C)(C)O)cc3)nc2c1  normalized enrichment score (RNA-seq GSEA, item: FALLER_ENTEROCYTE_PRO_MOUSE; organoids, small intestinal, Apc Q1405X, mouse; dose not given, wild-type organoids; relative to: DMSO, direction not given): -1
C[C@H]1C[C@H]2CSC(N)=N[C@@]2(c2nc(NC(=O)c3ccc(OC(F)F)cn3)cs2)CO1  percent change from baseline (item: Aβx-40; healthy adults, plasma; 5 mg once daily, day 10; relative to: placebo): -41.7%
COc1ccc2c3c([nH]c2c1)[C@H](CC(C)C)N1C(=O)[C@H](CC(=O)NC(C)C)NC(=O)[C@@H]1C3  serum concentration (item: protoporphyrin IX; Fech-mutant mice, serum; oral, 100 mg/kg, 0.5 h): 206 ng/mL and 377 ng/mL
CN[C@@H]1COc2c(S(=O)(=O)NC(=O)Nc3c4c(cc5c3CCC5)CCC4)cnn2C1  inhibition (item: IL-1β; human participants, whole blood ex vivo; 1800 mg single dose, 336 h, with: LPS/ATP; relative to: baseline): 40.9%
OC(CCN1CCCCC1)(c1ccccc1)C1CC2C=CC1C2 (stereo not drawn)  EEG theta power, O2 Pz (resting-state EEG; healthy elderly humans; oral, 2 mg, eyes closed, LS mean): 8.9 µV²
C[C@H]1O[C@@H](O[C@H]2CC[C@@]3(C)[C@@H](CC[C@]4(C)[C@@H]3C=C[C@]35OC[C@@]6(CCC(C)(C)C[C@H]63)[C@@H](O)C[C@]54C)[C@]2(C)CO)[C@H](O)[C@@H](O[C@@H]2O[C@H](CO)[C@@H](O)[C@H](O)[C@H]2O)[C@H]1O  total cholesterol (chronic-plus-binge ethanol mice, plasma; oral, 15 mg/kg/day for 7 d, 168 h): 1.68 mM and 1.61 mM and 1.48 mM and 1.21 mM and 1.35 mM and 1.46 mM
N#Cc1ccc2c(-c3ccncc3)c(-c3ccc(F)cc3)nn2c1  log2 fold change (kinase binding, competitor, MIB/MS competition, item: HSL1; Candida albicans cell lysate; 10 µM; relative to: DMSO): 0.132
O=C(O)CNC(=O)Cc1ccccc1  sarcomere length (ventricular cardiomyocytes, C57BL/6 mouse; dose not given, 0.148 s): 1.67 µm
O=C(c1ccncc1)N1C[C@@H]2N[C@H](C1)[C@H]2c1ccc(/C=C/c2ccccc2)cc1  EC50 (IDE; enzyme activity, inhibitor, fluorogenic kinetic; with: Mca-RPPGFSAFK(Dnp)-OH substrate): 8800 nM
CN(C)C(=O)Oc1cccc([N+](C)(C)C)c1  twitch response (rat cisatracurium-induced neuromuscular block; 0.04 mg/kg): 54.3% and 43.6% and 52.6% and 31.4%
CSCCNc1nc(SCCC(F)(F)F)nc2c1ncn2[C@@H]1O[C@H](COP(=O)(O)OP(=O)(O)C(Cl)(Cl)P(=O)(O)O)[C@@H](O)[C@H]1O  patients with high residual reactivity (platelet aggregation, light transmission aggregometry; human patients, platelet-rich plasma; dose not given, 30 min, aggregation above 46%, with: ADP 5 µM): 55%
CCN1CCN(Cc2ccc(Nc3ncc(F)c(-c4cc(F)c5nc6n(c5c4)[C@H](C)CCC6)n3)nc2)CC1  progressive disease (human advanced solid tumours; 300 mg, phase Ia monotherapy RECIST 1.1): 33.3%
O=C(COc1ccc(Cl)cc1)NC12CC(c3nnc([C@H]4C[C@@H](OC(F)(F)F)C4)o3)(C1)C2  mRNA level change (item: CHAC1; PBMC ex vivo stimulated, human ALS patients; 200 mg, D7 predose; relative to: baseline): -82.1%
COc1cc(N2CCC(N3CCN(C)CC3)CC2)ccc1Nc1ncc(Cl)c(Nc2ccccc2P(C)(C)=O)n1  tumour volume (nude mice, NCI-H3122 xenograft; intraperitoneal, 10 mg/kg every other day, day 9): 109 mm3 and 209 mm3 and 242 mm3 and 216 mm3 and 102 mm3
C[C@H](Oc1ccc(Br)cc1-c1ccon1)C(=O)O  difference from placebo (last response peak; human, tibialis anterior muscle; 800 mg, 30 Hz, single ascending dose): -18.8%
NC(=O)c1cnc2[nH]ccc2c1N[C@@H]1[C@@H]2CC3C[C@H]1C[C@@](O)(C3)C2  change from baseline (flow cytometry, item: CD8+ effector memory T cells; Japanese healthy subjects, peripheral blood; oral, 100 mg twice daily, day 7): 0.18%
N#Cc1ccc2c(c1)[C@H]1CCCN(C(=O)c3ccc4[nH]cnc4c3)[C@H]1C2  change in fasting insulin (human, plasma; 240 mg, day 15, 360 h; relative to: placebo and baseline): -17.2%
COc1ccc2c(c1)CC[C@@H]1[C@@H]2CC[C@]2(C)[C@@H](NCCCCCCN3C(=O)C=CC3=O)CC[C@@H]12  p-PKC level (immunostaining; humanized mouse, SAH model, meninges; dose not given): 5.71 MFI and 8.23 MFI and 12.8 MFI
Cc1cnc(N2CC3(CCOCC3)C2)c(C(=O)Nc2ccc(C(=O)N3CCc4cc(C(=O)Nc5c(C)cccc5F)sc4-c4ccccc43)cc2)c1  inhibition (item: Mucin; human RSV infection, nasal wash; dose not given, AUC, ITT-IS population; relative to: placebo): 87%
CCN(Cc1nc2c(N)nc3cc(-c4cc[nH]n4)ccc3c2[nH]1)C(C)=O  patients with increased cells (immunohistochemistry, item: MPO+ TANs; patients with advanced solid tumours, injected tumour lesions; dose not given, monotherapy): 45%
C[C@H](NC(=O)c1c(C(F)F)nn(C)c1Oc1cccc(C(F)(F)F)c1)c1ccc(C(=O)O)cc1  patients not evaluable or unknown (irRECIST best overall response; patients with advanced tumours; dose not given, all dose groups combined): 33.3%
Cc1c(-c2ccc([C@@H]3[C@@H](CO)N4CCCCN(S(=O)(=O)c5ccccc5C(F)(F)F)C[C@@H]34)cc2)cccc1C(F)(F)F  EC50 (IDE; enzyme activity, inhibitor, fluorescence kinetic; with: Mca-RPPGFSAFK(Dnp)-OH substrate): 95 nM
N#Cc1ccn2c(-c3ccncc3)c(-c3ccc(F)cc3)nc2c1  log2 fold change (kinase binding, competitor, MIB/MS competition, item: NPR1; Candida albicans cell lysate; 10 µM; relative to: DMSO): -0.018
CC1(C)CCC(CN2CCN(c3ccc(C(=O)NS(=O)(=O)c4ccc(NCC5CCOCC5)c([N+](=O)[O-])c4)c(Oc4cnc5[nH]ccc5c4)c3)CC2)=C(c2ccc(Cl)cc2)C1  EC50 (cell killing; canine blood CD3+ T cells, dog 31; 24 h): 72 nM
COc1cc2cc(-c3ccc(CC(=O)Nc4cc(C(C)(C)C(F)(F)F)no4)cn3)cnc2cc1OC  best overall response PD (RECIST v1.1; human RET-altered solid tumours; 13 100 mg tablets, phase I): 13%
Cc1noc(C)c1-c1cc(C(O)(c2ccccn2)c2ccccn2)c2nc(C3CC3)[nH]c2c1  maximum inhibition (item: CCR2 expression; human, peripheral blood; 3 mg, day 8, 1604 study): 38%
CC(C)[C@H](C(=O)Nc1ccc(C(=O)NO)cc1)c1ccccc1  speech discrimination score, left ear (human; 1.6 2 weeks after dosing; direction not given): 100%
CCOC(=O)c1c(NC(=O)CNC(C)C)sc2c1CCCCC2  reduction of NREM spike rate (epileptiform activity, EEG; mouse APP J20; 75 mg/kg): ~50%
COc1ccc(Oc2cc(N(C)CCOc3ccc(CC4SC(=O)NC4=O)cc3)ncn2)cc1 (stereo not drawn)  patients achieving HbA1c below 7% (type 2 diabetes patients; 0.5 mg once daily, 12 weeks): 28.8%
C[C@@H](NC(=O)N1C(=O)[C@H](Cc2ccnc(N)c2)[C@H]1C(=O)O)C1CCCCC1  aPTT Emax (human; iv infusion, 2.25 mg/kg/h, 24 h): 62.6 s

Excerpt of the above:
C[C@H]1O[C@@H](O[C@H]2CC[C@@]3(C)[C@@H](CC[C@]4(C)[C@@H]3C=C[C@]35OC[C@@]6(CCC(C)(C)C[C@H]63)[C@@H](O)C[C@]54C)[C@]2(C)CO)[C@H](O)[C@@H](O[C@@H]2O[C@H](CO)[C@@H](O)[C@H](O)[C@H]2O)[C@H]1O  total cholesterol (chronic-plus-binge ethanol mice, plasma; oral, 15 mg/kg/day for 7 d, 168 h): 1.68 mM and 1.61 mM and 1.48 mM and 1.21 mM and 1.35 mM and 1.46 mM
Cc1cnc(N2CC3(CCOCC3)C2)c(C(=O)Nc2ccc(C(=O)N3CCc4cc(C(=O)Nc5c(C)cccc5F)sc4-c4ccccc43)cc2)c1  inhibition (item: Mucin; human RSV infection, nasal wash; dose not given, AUC, ITT-IS population; relative to: placebo): 87%
COc1cc2cc(-c3ccc(CC(=O)Nc4cc(C(C)(C)C(F)(F)F)no4)cn3)cnc2cc1OC  best overall response PD (RECIST v1.1; human RET-altered solid tumours; 13 100 mg tablets, phase I): 13%
COc1ccc(Oc2cc(N(C)CCOc3ccc(CC4SC(=O)NC4=O)cc3)ncn2)cc1 (stereo not drawn)  patients achieving HbA1c below 7% (type 2 diabetes patients; 0.5 mg once daily, 12 weeks): 28.8%
